Assay results from different studies.
Each line is one published result; not all experiments were run side by side. Numbers after ± are the reported error.
Cell line: K562

Structure (SMILES) | test | setting | how to read | measurement | value
Cc1ccc(C2=Nn3c(N/N=C4/C(=O)Nc5ccc(Br)cc54)nnc3SC2)cc1 | cell growth or viability, SRB | 10 µM | – | inhibition | 14%
CCC(=C(c1ccc(Cl)cc1)c1ccc(OCCCN(C)C)cc1)c1ccc(OC)cc1 | cell growth or viability | – | – | GI50 | 1.06 µM
O=C(/C=C/c1ccccc1)c1ccccc1O | cell viability | – | – | IC50 | 28 µM
O=C1Nc2ccccc2/C1=N\Nc1nnc2n1N=C(c1ccc(Cl)cc1)CS2 | cell growth or viability, SRB | 10 µM | – | inhibition | 14%
CC(=O)OC[C@H]1O[C@@H](Sc2sc(C(=O)c3ccc(Br)cc3)c(N)c2-c2nc3ccccc3s2)[C@H](OC(C)=O)[C@@H](OC(C)=O)[C@@H]1OC(C)=O | SRB | 10 µM, 48 h | – | growth | 66.4%
COc1cc2c(c(OC)c1OC)CC(Cc1ccc3c(c1)OCCO3)C2 (stereo not drawn) | cell growth or viability, CCK-8 | 1 µM, 72 h | – | inhibition | 6.73%
COc1ccc(CN2C(=O)C(=O)c3cc(NC(C)=O)ccc32)cc1 | Annexin V/PI | 1 µM, 48 h | – | apoptotic cells | 51.1%
COc1ccc(/C=C/C(=O)c2c(O)cc(OC)cc2O)cc1 | NF-κB activity, inhibitor, luciferase | TNF-stimulated | – | IC50 | > 200 µM
O=C1c2ccc(O)cc2OC1(O)Cc1ccc(O)c(O)c1 (stereo not drawn) | MTT | 72 h | baseline: IC50 MRC5 over IC50 K562 | selectivity ratio | > 3.1
COc1ccc(C2=Nn3c(NN=C4C(=O)N(C)c5ccc(Br)cc54)nnc3SC2)cc1 | cell growth or viability, SRB | 10 µM | – | inhibition | 33%
O=C(/C=C/c1ccc(O)cc1)c1ccc(O)cc1O | cell viability | – | – | IC50 | 44 µM
CC/C=C\C/C=C\C/C=C\C/C=C\C/C=C\C/C=C\CCC(=O)Nc1ccn(C2OC(CO)C(O)C2(F)F)c(=O)n1 (stereo not drawn) | NCI60 screen | – | – | TGI | 46.9 µM
CC(=C(c1ccc(O)cc1)c1ccc(Cl)cc1)c1ccc(Cl)cc1 | cell growth or viability | – | – | GI50 | 0.38 µM
COc1cc(/C=C/C(=O)c2ccc(O)cc2O)ccc1O | cell viability | – | – | IC50 | 29 µM
CC(C)CCCC(C)C1CCC2C3CC=C4CC(OC(=O)CCC(=O)NCCCCCCNC(=O)O[C@H]5[C@@H](O)[C@H](n6cnc7c(=O)[nH]c(N)nc76)O[C@@H]5COP(=O)(O)OP(=O)(O)OP(=O)([S-])OC[C@H]5O[C@@H](n6c[n+](C)c7c(O)nc(N)nc76)[C@H](O)[C@@H]5O)CCC4(C)C3CCC12C (mixture of isomers) | annexin V/PI flow cytometry | 20 µM, 20 h | – | apoptotic cells | 60.8 ± 3.2%
COc1cccc(/C=C/C(=O)c2ccccc2O)c1OC | cell viability | – | – | IC50 | 12 µM
COc1cc(/C=C/C(=O)/C=C(O)/C=C/c2ccc(OCC(=O)N3CCOCCOCCOCCOCCOCC3)c(OC)c2)ccc1OCC(=O)N1CCOCCOCCOCCOCCOCC1 | cell growth or viability, SRB | 5 µM | – | inhibition | 34.1%
O=C(/C=C/c1ccc(O)cc1)c1ccccc1 | NF-κB activity, inhibitor, luciferase | TNF-stimulated | – | IC50 | 24 µM
CC(=O)OC[C@H]1O[C@@H](Sc2sc(C(=O)c3ccc(C)cc3)c(N)c2-c2nc3ccccc3s2)[C@H](OC(C)=O)[C@@H](OC(C)=O)[C@@H]1OC(C)=O | SRB | 10 µM, 48 h | – | growth | 68.5%
COc1cc(O)c(C(=O)/C=C/c2ccc(O)cc2)c(OC)c1 | cell viability | – | – | IC50 | 13 µM
C(=C/c1ccccc1)/c1ccccc1 | apoptosis, item: caspase-3 activity | 24 h, lowest dose with significant induction | baseline: vehicle | lowest effective concentration | 50 µM

Repeated from above:
Structure (SMILES) | test | setting | how to read | measurement | value
COc1ccc(C2=Nn3c(NN=C4C(=O)N(C)c5ccc(Br)cc54)nnc3SC2)cc1 | cell growth or viability, SRB | 10 µM | – | inhibition | 33%
COc1cccc(/C=C/C(=O)c2ccccc2O)c1OC | cell viability | – | – | IC50 | 12 µM
